Measurements from different studies.
Each line is one published result; not all experiments were run side by side. Several values in a cell are separate wells, animals, samples, runs or records. Numbers after ± are the reported error.

SMILES	tested on	test	system	conditions	scale	measurement	result
COc1cc(/C=C2\CC/C(=C\c3ccc(O)c(OC)c3)C2=O)ccc1O	WRL68	MTT		25.0 µg/mL, 48 h, 10% FBS		viability	14.3% and 13.8%
CC(=O)N[C@H]1[C@H]([C@H](O)[C@H](O)CO)OC(C(=O)O)=C[C@@H]1N=C(N)N	Caco-2 monolayer		HBSS without Ca2+	180 min, apical to basolateral		Papp	2.42 ± 0.161 ×10⁻⁶ cm/s
COc1ccc(CNC(=O)c2ccc(CNCc3cnc4nc(N)nc(N)c4n3)cc2)cc1	THP-1-derived macrophages	MTT				CC50	50 to 100 µM
COC[C@@H](CC(C)C)NC(=O)c1ccc(C)c(C)c1	primary human lymphocytes	refers to: structural aberrations		55 µg/mL, 20 h, without S9		cells with aberrations	0%
COC(=O)C1CCN(C(=O)c2ccc(SCc3cnc4nc(N)nc(N)c4n3)nc2)CC1	THP-1-derived macrophages	MTT				CC50	50 to 100 µM
CSc1c(-c2nc3ccccc3s2)c(N)n(NS(=O)(=O)c2ccccc2)c(=O)c1C#N	FRhK-4			72 h		maximum non-toxic concentration	100 µg/mL
CCc1c(-c2ccccc2)c(-c2ccccc2)nn1-c1ccccc1-c1cccc(OCC(=O)O)c1	mouse bone marrow macrophages	CCK-8		2 µM, 4000 cells	reference: untreated	viability	96.4% and 101% and 92.1% and 88.8% and 86.4% and 84.4%
COc1ccc(-c2nc(NS(=O)(=O)c3ccccc3)nc(N)c2-c2nc3ccccc3s2)cc1	FRhK-4	cytotoxicity		72 h		maximum non-toxic concentration	100 µg/mL
CC1(C)OB(c2ccc(CNS(=O)(=O)c3cc(C(=O)Nc4cc(F)c(F)c(F)c4)ccc3F)cc2)OC1(C)C	HepAD38 cells	CCK-8		6 days		CC50	5.71 ± 1.36 µM
NC1=NN(c2ccc(Oc3ccccc3)c(S(=O)(=O)O)c2)C(=O)C1	human neural progenitor cells			20 µM, 72 h		viability	< 25%
COC(=O)C1CCN(C(=O)Cc2ccc(NCc3cnc4nc(N)nc(N)c4n3)cc2)CC1	THP-1-derived macrophages	MTT				CC50	> 100 µM
Cc1cc(C(=O)NC(C)(C)COc2cccc3c2C(N)=NS(=O)(=O)N3)cc(C)n1	human peripheral blood lymphocytes	CBPI, concurrent micronucleus test		2000 µg/mL, 24 h	reference: vehicle control	cytotoxicity	5%
Cc1cc2ccccc2n1CCNC(=O)c1ccc(N2CCC(O)CC2)cc1	C6 glioma	cell viability				cytotoxic concentration	> 100 µM
Cn1cc(-c2ccc(-c3cncc(Cl)c3N3CCC4(CCNC4=O)CC3)cc2)cn1	COLO 205	gene expression, microarray, refers to: NAIP mRNA		concentration not given, 6 h	reference: untreated cells	log2 fold change	1.51
C[C@@H]1O[C@@H](OC[C@H]2O[C@@H](Oc3c(-c4ccc(O)c(O)c4)oc4cc(O)cc(O)c4c3=O)[C@H](O)[C@@H](O)[C@@H]2O)[C@H](O)[C@H](O)[C@H]1O	Caco-2 monolayer	transwell permeability		100 µg/mL, apical to basolateral, HBSS, DMSO 1%, added: SDS 10 mg/mL	reference: SDS alone	Papp increase	28.3%
N#CCC(=O)Nc1ccc(C2CCCCC2)cc1		hepatocyte stability	cryopreserved mouse hepatocytes	1 µM		hepatic clearance	81 mL/min/kg
CCOC(=O)c1cc(C#N)c(=O)n(NS(=O)(=O)c2ccc(C)cc2)c1N	FRhK-4			72 h		maximum non-toxic concentration	90 µg/mL
Cc1ccc(S(=O)(=O)Nc2ncc(-c3nc4ccccc4s3)c(N)n2)cc1	FRhK-4	cytotoxicity		72 h		maximum non-toxic concentration	110 µg/mL
CN(Cc1cnc2nc(N)nc(N)c2n1)c1ccc(C(=O)N2CCCCC2)cc1	THP-1-derived macrophages	MTT				CC50	> 100 µM
Cc1ccc(C(=O)CNc2nc(NS(=O)(=O)c3ccccc3)ncc2-c2nc3ccccc3s2)cc1	FRhK-4	cytotoxicity		72 h		maximum non-toxic concentration	100 µg/mL
COC(=O)C1CCN(C(=O)c2cccc(NCc3cnc4nc(N)nc(N)c4n3)c2)CC1	THP-1-derived macrophages	MTT				CC50	> 100 µM
Nc1nc(NS(=O)(=O)c2ccccc2)ncc1-c1nc2ccccc2s1	FRhK-4	cytotoxicity		72 h		maximum non-toxic concentration	100 µg/mL
COCCN(C)C(=O)c1ccc(C2CCCCC2)cc1		hepatocyte stability	cryopreserved rat hepatocytes	1 µM		hepatic clearance	47 mL/min/kg

Repeated from above:
SMILES	tested on	test	system	conditions	scale	measurement	result
COc1ccc(CNC(=O)c2ccc(CNCc3cnc4nc(N)nc(N)c4n3)cc2)cc1	THP-1-derived macrophages	MTT				CC50	50 to 100 µM
